Published values from different studies.
Parts stem from different laboratories: compare values within a part only. Changes are numbered by the printed parent chain.

Sample 1
Target: DBP, bZIP domain (human)
Method: DHFR protein complementation
Matrix: yeast
Setting: single substitutions, most at no-binding floor
Baseline: wild-type JUN-FOS pair
Direction: higher = stronger binding
Starting sequence: JUN, bZIP domain (human); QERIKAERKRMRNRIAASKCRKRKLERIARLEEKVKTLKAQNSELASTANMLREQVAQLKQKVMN; partner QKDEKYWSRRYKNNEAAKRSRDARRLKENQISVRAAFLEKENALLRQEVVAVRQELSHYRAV
| Variant | binding fitness [natural log] |
| --- | --- |
| N42W | -1.59 |
| L45R | -1.47 |
| A40Q | -1.53 |
| L59W | -1.42 |
| V35H | -1.5 |
| V56N | -1.61 |
| Q41C | -1.36 |
| E32S | -1.38 |
| E54H | -1.4 |
| M51S | -1.37 |
| E44C | -1.46 |
| Q41L | -1.52 |
| A46F | -1.28 |
| K39A | -1.42 |
| M51C | -1.57 |
| Q41S | -1.47 |
| Q41I | -1.52 |
| M51A | -1.29 |
| A29T | -1.38 |
| M51L | -1.51 |
| K36S | -1.44 |
| E33H | -1.25 |
| A49T | -1.55 |
| R30L | -1.36 |
| T37P | -1.51 |

Sample 2
Target: CCNB1, cyclin fold, Cln2 fusion (human)
Method: yeast growth competition, sequencing
Matrix: yeast
Setting: weak parent motif
Baseline: not given
Direction: higher = stronger binding
Starting sequence: SLBP docking peptide (human); ARYKRKLLINDFG
| Variant | normalised enrichment score |
| --- | --- |
| ARYKRKLLGNDFG [I9G] | 0.849 |
| AMYKRKLLINDFG [R2M] | 0.654 |
| ARYKLKLLINDFG [R5L] | 0.883 |
| ARYKRKLQINDFG [L8Q] | 0.651 |
| ARYKRKSLINDFG [L7S] | 0.344 |
| ARYKRKLIINDFG [L8I] | 0.886 |
| ARYKRKLLIPDFG [N10P] | 0.915 |
| ARYKRKLLQNDFG [I9Q] | 0.139 |
| ARYKRKLWINDFG [L8W] | 0.34 |
| ARYKRKLLFNDFG [I9F] | 0.758 |
| ARYKFKLLINDFG [R5F] | 0.392 |
| ARYKRKLLINDWG [F12W] | 0.171 |
| IRYKRKLLINDFG [A1I] | -0.173 |
| ARYKRKLLINDFL [G13L] | -0.394 |
| AHYKRKLLINDFG [R2H] | 0.438 |
| ARYKRKLLIRDFG [N10R] | 0.226 |
| ARYKRKLLITDFG [N10T] | 0.919 |
| ARYSRKLLINDFG [K4S] | 0.0953 |
| ARYKRKLLIVDFG [N10V] | 0.393 |
| ARYKRKLLMNDFG [I9M] | 0.849 |
| ARYPRKLLINDFG [K4P] | 0.152 |
| AVYKRKLLINDFG [R2V] | 0.842 |

Sample 3
Target: RING finger protein unkempt homolog, zinc fingers 1-6, GST-SBP tag (UNK, Homo sapiens, UniProt Q9C0B0, residues 30-357)
Method: RNA Bind-n-Seq
Molecule type: RNA
Matrix: in vitro
Tested at: not given
Setting: RNA with constant flanks, ends assumed
Baseline: input RNA pool
Direction: higher = stronger binding
Construct (chain): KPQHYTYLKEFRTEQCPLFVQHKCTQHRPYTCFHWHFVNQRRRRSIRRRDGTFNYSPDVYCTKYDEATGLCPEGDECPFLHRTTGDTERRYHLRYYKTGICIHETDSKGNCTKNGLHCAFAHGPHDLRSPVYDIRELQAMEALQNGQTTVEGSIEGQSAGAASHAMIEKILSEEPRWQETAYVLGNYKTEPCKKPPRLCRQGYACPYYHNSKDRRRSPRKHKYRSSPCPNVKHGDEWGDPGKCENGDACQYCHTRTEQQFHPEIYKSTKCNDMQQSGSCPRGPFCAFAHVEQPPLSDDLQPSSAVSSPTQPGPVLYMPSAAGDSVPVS
| Strand | bound/input enrichment [ratio] |
| --- | --- |
| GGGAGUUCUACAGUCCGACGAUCCAAGAUCACCUGUUGCCUGAAGCAGAAGAAAUCACUAUGAUCAGUAUUCAACUUGCUGCCCGGUUCCUCUUUACUACAGGAUUUCACACAAAGAAAGUAGUCCGUGGCUCUGCCAGUGAUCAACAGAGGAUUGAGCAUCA | 0.257 |
| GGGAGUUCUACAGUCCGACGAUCGAGUUUUCCCCACCAAGGGGACCAUGCACAUGGUAGAAACAUUAGAUUCUGCAUUGACAGCCGCCUUUCCUUGGCCCGGGCCUGUGGUGGGAAGACGGGCAACAAGUAUACCCCACCAGGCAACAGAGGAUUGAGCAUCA | 0.208 |
| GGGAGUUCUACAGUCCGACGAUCGGUUUAAACUUUUAAUUCUGUAUUUCAUGAUUAUAAGUCUUGCUAGAAUUUUUUCUAAUCUUCCGCCGAUUUGAUUAAAUAAUGAUUCACAGAAUUUAGUAACAGAAUCAAACUAAGCCACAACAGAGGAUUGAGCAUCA | 0.96 |
| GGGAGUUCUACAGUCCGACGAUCGCUAUGAAAAGGGGAGAGCCUGCCAUCUACAGGCCAUUAGAUCCAAAGCCAUUCCCAAAUUACCGAGCUAAUUACAACUUUCGGGGCAUGUACAAUCAGAGGUAUCAUUGCCCAGUGCCUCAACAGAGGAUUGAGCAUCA | 0.485 |
| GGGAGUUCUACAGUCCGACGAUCGACCCAGAAAAUAAUCGGGGACAAGAAUCCUUUCCUAGGACUGCUGGACAAGAGGAUCGCCGUCUAAAAAUUAUCAAAAGAACAAAGAAACCCGACCUGCAGAUCUAUCAGCCUGGACGACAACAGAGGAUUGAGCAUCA | 0.591 |
| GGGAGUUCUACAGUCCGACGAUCAGCACCCCCGGGAGCGGGGCUCGCAGCCGGGGACCAGCCCUGCAGCGCCCAUCUGGGGGCCCGUUCUUAACUCUUCCUCCACGGAGCCCCAGACGGGUCCCCUCCCUUCUUGAUCCUUUUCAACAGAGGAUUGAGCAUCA | 0.115 |
| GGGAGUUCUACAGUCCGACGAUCUAUACCUCCAGAGAGCAGACUGUCUACUACGCCAAAGCAUUCUCGAGAGAUUUGCCCAGAGCUGCCGAAAUUCUUGCUGACAUAAUUCAGAACAGCACACUGGGAGAAGCAGAGAUUGAGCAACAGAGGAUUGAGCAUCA | 0.0931 |
| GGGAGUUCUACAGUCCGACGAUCGUCCCGGACCGCAGUGUUAAAAAGACCUGAACACAUUUGCUGAAACCUCUUGCUGUGAGACCGCAGAACUUUUGAGCAGGUUUCUCUACACAUAAAAAUCUUUUCAAAAAUACGGAGAAGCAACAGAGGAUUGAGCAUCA | 0.249 |

Other studies, line by line
| Molecule | target | test | system | conditions | how to read | measurement | value |
| --- | --- | --- | --- | --- | --- | --- | --- |
| PhoQ, residues 284 288 289 292 302 303 ALSMDL | PhoP, residues 12 14 15 18 19 LHSVQ (Escherichia coli, UniProt P23836) | Sort-seq, refers to: YFP reporter | E. coli | PhoQ-PhoP variant library, added: 10 µM Mg2+ | baseline: high Mg2+ state, higher = stronger signaling | fold induction | 14.7 |
